Published values of several laboratories.
Numbered parts are unrelated; each lists some results of a single study. Several values in a cell are separate wells, animals, samples, runs or records.
UniProt P11712, sequence (whole entry, looked up): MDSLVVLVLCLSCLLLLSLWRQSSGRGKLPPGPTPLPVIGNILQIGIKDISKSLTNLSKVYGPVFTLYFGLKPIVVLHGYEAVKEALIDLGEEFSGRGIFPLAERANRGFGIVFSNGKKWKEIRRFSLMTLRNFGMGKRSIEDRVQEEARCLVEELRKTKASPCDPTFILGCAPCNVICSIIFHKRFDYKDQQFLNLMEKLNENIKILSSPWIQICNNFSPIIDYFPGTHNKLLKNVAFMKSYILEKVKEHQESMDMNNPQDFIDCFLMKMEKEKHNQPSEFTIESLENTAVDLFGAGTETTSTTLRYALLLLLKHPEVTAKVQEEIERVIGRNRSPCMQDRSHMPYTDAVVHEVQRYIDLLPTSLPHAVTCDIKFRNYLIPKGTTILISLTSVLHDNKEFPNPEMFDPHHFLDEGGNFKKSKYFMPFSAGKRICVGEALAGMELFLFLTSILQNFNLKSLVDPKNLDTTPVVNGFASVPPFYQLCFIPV
UniProt P20813, sequence (whole entry, looked up): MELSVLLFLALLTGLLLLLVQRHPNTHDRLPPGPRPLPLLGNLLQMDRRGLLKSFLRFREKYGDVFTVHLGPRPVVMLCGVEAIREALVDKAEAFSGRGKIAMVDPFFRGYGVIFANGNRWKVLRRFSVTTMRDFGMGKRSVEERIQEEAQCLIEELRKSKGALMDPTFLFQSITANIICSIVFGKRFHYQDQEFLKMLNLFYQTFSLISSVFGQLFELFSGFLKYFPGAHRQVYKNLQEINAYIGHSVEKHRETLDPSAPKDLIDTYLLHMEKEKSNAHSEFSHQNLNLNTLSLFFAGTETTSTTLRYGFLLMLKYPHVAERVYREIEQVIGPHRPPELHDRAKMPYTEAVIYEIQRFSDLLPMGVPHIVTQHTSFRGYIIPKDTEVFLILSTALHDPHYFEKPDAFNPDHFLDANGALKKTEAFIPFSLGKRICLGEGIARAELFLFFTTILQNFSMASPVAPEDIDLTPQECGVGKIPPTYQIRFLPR
UniProt P05177, sequence (whole entry, looked up): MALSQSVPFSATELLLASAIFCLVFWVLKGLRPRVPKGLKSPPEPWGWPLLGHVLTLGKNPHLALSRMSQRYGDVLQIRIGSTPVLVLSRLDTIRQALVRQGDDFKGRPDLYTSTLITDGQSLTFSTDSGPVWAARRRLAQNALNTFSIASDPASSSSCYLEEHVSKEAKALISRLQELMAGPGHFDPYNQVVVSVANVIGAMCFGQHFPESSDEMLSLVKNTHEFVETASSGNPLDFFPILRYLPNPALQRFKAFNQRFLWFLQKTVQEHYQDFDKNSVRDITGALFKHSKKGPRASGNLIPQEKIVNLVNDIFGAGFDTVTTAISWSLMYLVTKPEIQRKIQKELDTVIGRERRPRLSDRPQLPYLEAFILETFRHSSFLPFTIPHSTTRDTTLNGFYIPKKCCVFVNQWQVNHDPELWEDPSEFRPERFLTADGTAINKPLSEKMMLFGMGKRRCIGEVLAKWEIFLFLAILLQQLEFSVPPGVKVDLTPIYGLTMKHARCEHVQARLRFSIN

Set 1
Structure (SMILES): NC/C(=C\F)COc1cccc(Cn2c(=S)[nH]c(=O)c3[nH]cnc32)c1
Mode: inhibitor
Cytochrome P450 2C9 (CYP2C9, Homo sapiens, UniProt P11712); 0.37 µM — remaining activity: 105% and 112%.
It gave 60.5% and 76.1% for remaining activity (Cytochrome P450 1A2 (CYP1A2, Homo sapiens, UniProt P05177); 30 µM).
Cytochrome P450 2B6 (CYP2B6, Homo sapiens, UniProt P20813); 30 µM — remaining activity: 56.6% and 59.2%.

Set 2
SMILES: C[C@@H]1CN(c2ccc(-c3cc(C(=O)NCCOCCOCCOCCOCCNC(=O)/C=C/c4[nH]cc(C(=O)N[C@@H](CC(N)=O)c5ccc(F)c(Cl)c5)c4-c4ccc(Cl)cc4F)ccc3F)cc2NC(=O)c2c[nH]c(=O)cc2C(F)(F)F)C[C@H](C)N1C
Effect on: thermal unfolding
Method: differential scanning fluorimetry
Tested at: 5.5 µM
Direction: higher = more unfolded
DCAF1: DDB1- and CUL4-associated factor 1 (DCAF1, Homo sapiens, UniProt Q9Y4B6)
UniProt Q9Y4B6, sequence (whole entry, looked up): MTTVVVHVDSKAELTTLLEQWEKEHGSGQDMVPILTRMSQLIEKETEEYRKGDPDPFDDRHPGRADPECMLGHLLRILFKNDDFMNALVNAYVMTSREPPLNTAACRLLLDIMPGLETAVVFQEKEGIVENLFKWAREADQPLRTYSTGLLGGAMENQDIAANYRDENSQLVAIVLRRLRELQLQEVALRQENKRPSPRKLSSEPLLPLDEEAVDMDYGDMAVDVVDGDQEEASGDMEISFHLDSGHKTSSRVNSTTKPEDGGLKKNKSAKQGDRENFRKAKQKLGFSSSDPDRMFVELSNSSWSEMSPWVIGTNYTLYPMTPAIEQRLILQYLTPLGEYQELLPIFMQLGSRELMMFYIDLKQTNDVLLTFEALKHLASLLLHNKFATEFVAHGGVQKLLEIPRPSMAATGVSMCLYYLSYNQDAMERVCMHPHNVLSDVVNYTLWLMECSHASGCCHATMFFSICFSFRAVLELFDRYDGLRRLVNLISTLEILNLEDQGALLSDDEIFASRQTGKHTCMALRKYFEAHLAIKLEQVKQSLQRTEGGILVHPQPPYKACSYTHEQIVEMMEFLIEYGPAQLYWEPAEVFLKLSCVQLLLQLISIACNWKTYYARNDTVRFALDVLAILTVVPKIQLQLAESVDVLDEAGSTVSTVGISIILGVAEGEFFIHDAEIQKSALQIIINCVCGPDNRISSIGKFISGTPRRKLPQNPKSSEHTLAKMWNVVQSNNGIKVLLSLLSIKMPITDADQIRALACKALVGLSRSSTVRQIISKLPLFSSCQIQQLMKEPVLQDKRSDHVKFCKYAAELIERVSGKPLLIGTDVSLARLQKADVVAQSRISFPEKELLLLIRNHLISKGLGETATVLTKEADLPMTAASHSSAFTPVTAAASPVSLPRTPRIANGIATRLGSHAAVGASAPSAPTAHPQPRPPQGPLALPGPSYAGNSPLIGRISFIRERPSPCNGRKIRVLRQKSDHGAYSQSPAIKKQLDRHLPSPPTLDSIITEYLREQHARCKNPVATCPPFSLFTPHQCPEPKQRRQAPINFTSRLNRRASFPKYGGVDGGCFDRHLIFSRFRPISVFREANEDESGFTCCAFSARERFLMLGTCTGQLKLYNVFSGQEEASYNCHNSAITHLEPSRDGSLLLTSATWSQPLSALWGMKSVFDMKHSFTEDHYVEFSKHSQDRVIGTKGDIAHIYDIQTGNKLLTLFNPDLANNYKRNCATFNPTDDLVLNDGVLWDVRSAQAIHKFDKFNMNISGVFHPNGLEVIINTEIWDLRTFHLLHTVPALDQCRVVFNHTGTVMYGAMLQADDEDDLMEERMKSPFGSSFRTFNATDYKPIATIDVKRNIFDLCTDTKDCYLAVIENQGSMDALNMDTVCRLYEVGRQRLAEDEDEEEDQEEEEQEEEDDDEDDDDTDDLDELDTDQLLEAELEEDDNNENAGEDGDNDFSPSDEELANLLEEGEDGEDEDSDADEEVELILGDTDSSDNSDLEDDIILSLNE
WDR5: WD repeat-containing protein 5 (WDR5, Homo sapiens, UniProt P61964)
It gave 43800 a.u. for “SYPRO Orange fluorescence” (DCAF1; 81.21 °C).
WDR5; 57.21 °C — “SYPRO Orange fluorescence”: 16500 a.u.
DCAF1; 44.2 °C — “SYPRO Orange fluorescence”: 12700 a.u.
It gave 20800 a.u. for “SYPRO Orange fluorescence” (WDR5; 72.81 °C).
It gave 47600 a.u. for “SYPRO Orange fluorescence” (DCAF1; 77.41 °C).
For WDR5; 32.2 °C: “SYPRO Orange fluorescence” read 12700 a.u.

Single results of other studies
DHAD: Dihydroxy-acid dehydratase, chloroplastic (DHAD, Arabidopsis thaliana, UniProt Q9LIR4)
UniProt Q9LIR4, sequence (whole entry, looked up): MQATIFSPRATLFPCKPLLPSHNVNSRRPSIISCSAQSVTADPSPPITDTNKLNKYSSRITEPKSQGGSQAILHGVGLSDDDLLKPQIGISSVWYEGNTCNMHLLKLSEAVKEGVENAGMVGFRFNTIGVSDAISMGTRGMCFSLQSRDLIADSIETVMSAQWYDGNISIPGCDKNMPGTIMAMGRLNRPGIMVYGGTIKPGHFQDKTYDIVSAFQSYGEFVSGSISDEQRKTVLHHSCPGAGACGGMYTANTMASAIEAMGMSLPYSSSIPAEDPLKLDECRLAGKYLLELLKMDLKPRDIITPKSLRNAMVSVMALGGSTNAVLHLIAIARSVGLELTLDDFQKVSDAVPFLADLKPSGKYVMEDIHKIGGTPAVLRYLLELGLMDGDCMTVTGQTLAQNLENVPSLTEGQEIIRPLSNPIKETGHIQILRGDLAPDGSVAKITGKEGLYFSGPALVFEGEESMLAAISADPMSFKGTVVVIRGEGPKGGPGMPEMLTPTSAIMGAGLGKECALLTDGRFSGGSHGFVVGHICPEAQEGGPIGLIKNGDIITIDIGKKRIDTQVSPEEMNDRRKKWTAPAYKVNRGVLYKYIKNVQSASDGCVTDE
With `O=C(O)C1(O)Oc2ccccc2N(Cc2ccccc2)C1=O` (centres unmarked) the Kd was 336 µM (DHAD; microscale thermophoresis).
`Cc1nc(C)c(C=[N+]([O-])C(C)(C)C)nc1C`: “complex I activity” 74.9% and 57.1% and 64.8% (mitochondrial complex I; primary cerebellar granule neurons, rat; 100 µM, with: MPP+; baseline: control).
For `CCCN1C(=O)C(O)(C(=O)O)Oc2cc(F)ccc21` (centres unmarked), “fresh weight inhibition” read 54.1% (Arabidopsis thaliana; foliar spray, 200 µg/mL, 20 days).
With `O=C(O)C1(O)Oc2cc(Cl)ccc2N(Cc2ccccc2)C1=O` (centres unmarked) the Kd was 31.7 µM (DHAD; microscale thermophoresis).
The Kd of `CCN1C(=O)C(O)(C(=O)O)Oc2cc(F)ccc21` (centres unmarked) is reported as 132 µM (DHAD; microscale thermophoresis).
